Measured values pooled from the literature.
“And” joins repeats or separate records; there may be more than shown. ± marks the error that the study gave.
Sequence of UniProt Q9NPD5 (whole entry, unmodified, looked up): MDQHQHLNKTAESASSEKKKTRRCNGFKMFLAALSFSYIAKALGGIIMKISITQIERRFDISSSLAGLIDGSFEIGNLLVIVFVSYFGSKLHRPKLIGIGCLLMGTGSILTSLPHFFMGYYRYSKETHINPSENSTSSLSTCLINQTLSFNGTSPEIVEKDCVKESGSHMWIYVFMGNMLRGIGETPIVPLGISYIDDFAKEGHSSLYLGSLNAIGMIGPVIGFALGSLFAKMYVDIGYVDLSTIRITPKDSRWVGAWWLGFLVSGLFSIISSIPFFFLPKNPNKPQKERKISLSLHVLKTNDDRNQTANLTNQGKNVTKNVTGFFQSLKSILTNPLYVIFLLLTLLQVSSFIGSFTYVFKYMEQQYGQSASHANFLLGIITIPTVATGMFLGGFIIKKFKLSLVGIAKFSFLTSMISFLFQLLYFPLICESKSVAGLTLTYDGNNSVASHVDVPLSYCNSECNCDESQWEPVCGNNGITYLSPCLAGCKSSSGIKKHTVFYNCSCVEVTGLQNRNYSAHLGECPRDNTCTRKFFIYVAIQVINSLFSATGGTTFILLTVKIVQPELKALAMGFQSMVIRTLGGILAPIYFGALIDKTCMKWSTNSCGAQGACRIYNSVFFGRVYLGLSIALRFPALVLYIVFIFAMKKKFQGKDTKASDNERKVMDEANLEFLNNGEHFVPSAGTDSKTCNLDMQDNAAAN
Sequence of UniProt P08684 (whole entry, looked up): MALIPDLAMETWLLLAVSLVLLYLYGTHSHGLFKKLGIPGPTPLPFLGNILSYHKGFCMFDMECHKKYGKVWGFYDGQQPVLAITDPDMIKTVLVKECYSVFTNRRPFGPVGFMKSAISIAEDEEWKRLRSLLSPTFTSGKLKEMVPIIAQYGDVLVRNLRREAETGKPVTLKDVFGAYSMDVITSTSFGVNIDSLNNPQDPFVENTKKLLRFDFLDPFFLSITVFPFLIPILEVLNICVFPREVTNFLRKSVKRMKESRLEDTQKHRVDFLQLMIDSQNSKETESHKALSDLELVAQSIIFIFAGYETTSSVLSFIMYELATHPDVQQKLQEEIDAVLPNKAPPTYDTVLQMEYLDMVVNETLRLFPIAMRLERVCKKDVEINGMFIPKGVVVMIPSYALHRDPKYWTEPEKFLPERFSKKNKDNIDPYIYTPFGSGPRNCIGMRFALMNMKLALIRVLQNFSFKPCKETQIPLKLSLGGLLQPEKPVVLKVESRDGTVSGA

CCCC(=O)OCSc1ccccc1C(=O)NCCn1ccc(=O)c2cc([N+](=O)[O-])ccc21
TC50 (CEM-SS; cell viability, XTT; RPMI with 10% FBS; 6 days): > 100 µM

CC(C)Nc1ccnc(Nc2cccc(-c3cccnc3)c2)n1
efflux ratio (P-glycoprotein (human MDR1); MDR1-MDCKII; 10 µM, 1 h, pH 7.4; baseline: B-A over A-B): 0.77

COc1cc2ncnc(Nc3ccc(Oc4ccccc4)cc3C)c2cc1OC.O=C(O)C(F)(F)F
viability fraction (MeWo (NF1); resazurin; 1 µM, 72 h, with: trametinib 0 nM): 0.806

CC(C)c1nc(N(C)S(C)(=O)=O)nc(-c2ccc(F)cc2)c1/C=C/[C@@H](O)C[C@@H](O)CC(=O)O
Km (Solute carrier organic anion transporter family member 1B3 (SLCO1B3, Homo sapiens, UniProt Q9NPD5, S112A); substrate, uptake; HEK293-A stably expressing SLCO1B3; 2 min): 23.7 µM

CC(C)Nc1ccnc(Nc2cccc(-c3ccncc3)c2)n1
efflux ratio (P-glycoprotein (human MDR1); MDR1-MDCKII; 10 µM, 1 h, pH 7.4; baseline: B-A over A-B): 0.72

COc1cc2c(cc1OC)[C@@H]1C(=O)c3ccc4c(c3O[C@@H]1CO2)C=CC(C)(C)O4
selectivity index (human adenovirus C5; viral progeny production, reporter virus; A549; baseline: CC50 over EC50): 250

CC[C@H](C)C(=O)N1CCC(NC(=O)Nc2ccc(OC(F)(F)F)c(F)c2)CC1
percent recovery (Caco-2; Caco-2 permeability; 10 µM, 60 min, pH 7.4 apical, 7.4 basolateral, mean; basolateral to apical): 81%

Cc1c(-c2ccc(N3CCc4cccc(C(=O)Nc5nc6ccccc6s5)c4C3)nc2C(=O)O)cnn1CC12CC3(C)CC(C)(C1)CC(OCCNCC[C@H](O)CO)(C3)C2
dP/dt at 50 change (beagle dog, male, anaesthetised; intravenous infusion, 0.3 mg/kg/min, 90 min; baseline: vehicle): -30%

CCCC(=O)OCSc1ccccc1C(=O)NCCn1cc(C(=O)NCc2cc(C)ccn2)c(=O)c2cc3c(cc21)OCO3
TC50 (CEM-SS; cell viability, XTT; RPMI with 10% FBS; 6 days): > 100 µM

COc1cc(/C=C/C=C2\SC(=S)NC2=O)cc(OC)c1O
viability (HeLa; CellTiter-Glo; 1.25 µM, 24 h, unit not given; baseline: untreated): 0.985 and 0.991

Cc1cn([C@H]2C[C@H](N=[N+]=[N-])[C@@H](CO)O2)c(=O)[nH]c1=O
TC50 (CEM-SS; XTT; no added glutathione): > 0.5 µM

CN(C(=O)C(C)(C)c1cc(C(F)(F)F)cc(C(F)(F)F)c1)c1cnc(N2C[C@H]3COCCN3C[C@H]2CO)cc1-c1ccc(F)cc1[14CH3]
fraction metabolized via UGT (cryopreserved human hepatocytes; 5 to 0.5 µM, with: cobicistat and CYP3cide): 5 to 12%

Cc1cc(N)c2c(OCC(C)(C)C(=O)NC(C)C)cccc2n1
mean revertant colonies (Salmonella typhimurium; reverse mutation, plate incorporation; TA100; 10 µg/plate, with rat liver S9): 87 colonies/plate

CCCC(=O)OCSc1ccccc1C(=O)NCCn1cc(C(=O)NCc2ccc(C)cn2)c(=O)c2cc3c(cc21)OCO3
TC50 (CEM-SS; cell viability, XTT; RPMI with 10% FBS; 6 days): > 100 µM

C#Cc1cccc(Nc2ncnc3cc(OCCOC)c(OCCOC)cc23)c1
inhibition (Solute carrier organic anion transporter family member 1B3 (SLCO1B3, Homo sapiens, UniProt Q9NPD5, M233I/S112A); uptake, inhibitor, radiolabelled substrate uptake; cells expressing SLCO1B3; 100 µM, 2 min, with: 1 µM [3H]estradiol glucuronide): 40 to 50%

Cc1cc(Nc2ccc(S(F)(F)(F)(F)F)cc2)n2nc(C(C)(F)F)nc2n1
patients with QTcB increase (Plasmodium falciparum; 12-lead ECG; malaria patients; oral, 250 mg, increase above 60 ms): 0%

CC[C@H](CO)N(CCN(N=O)[C@H](CC)CO)N=O
revertant colonies per plate (Salmonella typhimurium; plate incorporation; TA1535, water; 50 µg/plate, without S9): 19 ± 5

Cc1cccc(CNC(=O)c2cn(CCNC(=O)c3ccccc3Sc3c([N+](=O)[O-])ncn3C)c3cc4c(cc3c2=O)OC(F)(F)O4)n1
TC50 (CEM-SS; cell viability, XTT; 6 days, RPMI with 10% FBS, with: glutathione 1 mM): > 100 µM

C=CC(=O)N(C)CCOc1c(N)ncnc1-c1cc(F)cc(NC(=O)c2ccc(C3CC3)cc2F)c1C
maximum fold induction (human hepatocytes; item: CYP1A2 mRNA; baseline: vehicle): 5.47

CCCC(=O)OCSc1ccccc1C(=O)NCCn1cc(C(=O)OCC)c(=O)c2cc3c(cc21)OCO3
TC50 (CEM-SS; cell viability, XTT; RPMI with 10% FBS; 6 days): 18.8 ± 0.8 µM

c1ccc(-c2cccc(Nc3nccc(NC4CCCCC4)n3)c2)cc1
Papp (B-A) (P-glycoprotein (human MDR1); MDR1-MDCKII; 10 µM, 1 h, pH 7.4): 0.028 ± 0.021 ×10⁻⁶ cm/s

CC(C)n1c(/C=C/C(O)CC(O)CC(=O)O)c(-c2ccc(F)cc2)c2ccccc21 (centres unmarked)
Km (Solute carrier organic anion transporter family member 1B3 (SLCO1B3, Homo sapiens, UniProt Q9NPD5, M233I); substrate, uptake; HEK293-A stably expressing SLCO1B3; 2 min): 4.34 µM

CCCC(=O)OCSc1ccccc1C(=O)NCCn1cc(C(=O)NCc2nc(-c3ccccn3)no2)c(=O)c2cc3c(cc21)OCO3
TC50 (CEM-SS; cell viability, XTT; RPMI with 10% FBS; 6 days): > 100 µM

CNCCOC12CC3(C)CC(C)(CC(Cn4ncc(-c5ccc(N6CCc7cccc(C(=O)Nc8nc9ccccc9s8)c7C6)nc5C(=O)O)c4C)(C3)C1)C2
systemic vascular resistance change (anaesthetised male beagle dogs; intravenous bolus, 0.03 mg/kg, 60 min; baseline: baseline): 19%

CCCC(=O)OCSc1ccccc1C(=O)NCCOc1ccnc2ccc([N+](=O)[O-])cc12
TC50 (CEM-SS; cell viability, XTT; RPMI with 10% FBS; 6 days): 14.9 µM

CC[C@H]1[C@@H](O)[C@@H]2[C@H](CC[C@]3(C)[C@@H]([C@H](C)CCNC(=O)NS(=O)(=O)c4ccc(C(C)(C)C)cc4)CC[C@@H]23)[C@@]2(C)CC[C@@H](O)C[C@@H]12
CL/F (Cytochrome P450 3A4 (CYP3A4, Homo sapiens, UniProt P08684); human, plasma; mean, alone): 12.8 L/h

A few entries again:
CC(C)c1nc(N(C)S(C)(=O)=O)nc(-c2ccc(F)cc2)c1/C=C/[C@@H](O)C[C@@H](O)CC(=O)O
Km (Solute carrier organic anion transporter family member 1B3 (SLCO1B3, Homo sapiens, UniProt Q9NPD5, S112A); substrate, uptake; HEK293-A stably expressing SLCO1B3; 2 min): 23.7 µM

CC(C)n1c(/C=C/C(O)CC(O)CC(=O)O)c(-c2ccc(F)cc2)c2ccccc21 (centres unmarked)
Km (Solute carrier organic anion transporter family member 1B3 (SLCO1B3, Homo sapiens, UniProt Q9NPD5, M233I); substrate, uptake; HEK293-A stably expressing SLCO1B3; 2 min): 4.34 µM
